Measured values collected from several papers.
Lines come from different studies, so protocols differ.
UniProt P08311, sequence (whole entry, looked up): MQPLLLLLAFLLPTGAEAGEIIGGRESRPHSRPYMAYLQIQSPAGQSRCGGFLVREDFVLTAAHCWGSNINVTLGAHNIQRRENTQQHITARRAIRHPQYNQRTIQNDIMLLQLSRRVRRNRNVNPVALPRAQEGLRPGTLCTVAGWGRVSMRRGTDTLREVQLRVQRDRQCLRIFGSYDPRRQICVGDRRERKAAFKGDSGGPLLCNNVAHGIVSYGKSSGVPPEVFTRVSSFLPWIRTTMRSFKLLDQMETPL
UniProt P37023, sequence (whole entry, looked up): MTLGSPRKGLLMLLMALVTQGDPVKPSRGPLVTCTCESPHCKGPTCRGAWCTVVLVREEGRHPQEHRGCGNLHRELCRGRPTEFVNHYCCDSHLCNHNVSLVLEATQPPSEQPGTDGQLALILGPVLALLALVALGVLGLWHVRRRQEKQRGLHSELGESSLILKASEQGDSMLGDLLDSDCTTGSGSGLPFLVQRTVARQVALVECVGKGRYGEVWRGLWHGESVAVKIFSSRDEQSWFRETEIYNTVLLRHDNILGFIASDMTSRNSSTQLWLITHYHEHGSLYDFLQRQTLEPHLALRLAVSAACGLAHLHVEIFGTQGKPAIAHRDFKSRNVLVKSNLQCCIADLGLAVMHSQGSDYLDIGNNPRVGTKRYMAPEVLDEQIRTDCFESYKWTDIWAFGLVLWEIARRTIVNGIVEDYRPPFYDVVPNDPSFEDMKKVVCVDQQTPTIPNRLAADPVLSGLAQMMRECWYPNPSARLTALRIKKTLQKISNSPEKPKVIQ
UniProt Q9BX84, sequence (whole entry, looked up): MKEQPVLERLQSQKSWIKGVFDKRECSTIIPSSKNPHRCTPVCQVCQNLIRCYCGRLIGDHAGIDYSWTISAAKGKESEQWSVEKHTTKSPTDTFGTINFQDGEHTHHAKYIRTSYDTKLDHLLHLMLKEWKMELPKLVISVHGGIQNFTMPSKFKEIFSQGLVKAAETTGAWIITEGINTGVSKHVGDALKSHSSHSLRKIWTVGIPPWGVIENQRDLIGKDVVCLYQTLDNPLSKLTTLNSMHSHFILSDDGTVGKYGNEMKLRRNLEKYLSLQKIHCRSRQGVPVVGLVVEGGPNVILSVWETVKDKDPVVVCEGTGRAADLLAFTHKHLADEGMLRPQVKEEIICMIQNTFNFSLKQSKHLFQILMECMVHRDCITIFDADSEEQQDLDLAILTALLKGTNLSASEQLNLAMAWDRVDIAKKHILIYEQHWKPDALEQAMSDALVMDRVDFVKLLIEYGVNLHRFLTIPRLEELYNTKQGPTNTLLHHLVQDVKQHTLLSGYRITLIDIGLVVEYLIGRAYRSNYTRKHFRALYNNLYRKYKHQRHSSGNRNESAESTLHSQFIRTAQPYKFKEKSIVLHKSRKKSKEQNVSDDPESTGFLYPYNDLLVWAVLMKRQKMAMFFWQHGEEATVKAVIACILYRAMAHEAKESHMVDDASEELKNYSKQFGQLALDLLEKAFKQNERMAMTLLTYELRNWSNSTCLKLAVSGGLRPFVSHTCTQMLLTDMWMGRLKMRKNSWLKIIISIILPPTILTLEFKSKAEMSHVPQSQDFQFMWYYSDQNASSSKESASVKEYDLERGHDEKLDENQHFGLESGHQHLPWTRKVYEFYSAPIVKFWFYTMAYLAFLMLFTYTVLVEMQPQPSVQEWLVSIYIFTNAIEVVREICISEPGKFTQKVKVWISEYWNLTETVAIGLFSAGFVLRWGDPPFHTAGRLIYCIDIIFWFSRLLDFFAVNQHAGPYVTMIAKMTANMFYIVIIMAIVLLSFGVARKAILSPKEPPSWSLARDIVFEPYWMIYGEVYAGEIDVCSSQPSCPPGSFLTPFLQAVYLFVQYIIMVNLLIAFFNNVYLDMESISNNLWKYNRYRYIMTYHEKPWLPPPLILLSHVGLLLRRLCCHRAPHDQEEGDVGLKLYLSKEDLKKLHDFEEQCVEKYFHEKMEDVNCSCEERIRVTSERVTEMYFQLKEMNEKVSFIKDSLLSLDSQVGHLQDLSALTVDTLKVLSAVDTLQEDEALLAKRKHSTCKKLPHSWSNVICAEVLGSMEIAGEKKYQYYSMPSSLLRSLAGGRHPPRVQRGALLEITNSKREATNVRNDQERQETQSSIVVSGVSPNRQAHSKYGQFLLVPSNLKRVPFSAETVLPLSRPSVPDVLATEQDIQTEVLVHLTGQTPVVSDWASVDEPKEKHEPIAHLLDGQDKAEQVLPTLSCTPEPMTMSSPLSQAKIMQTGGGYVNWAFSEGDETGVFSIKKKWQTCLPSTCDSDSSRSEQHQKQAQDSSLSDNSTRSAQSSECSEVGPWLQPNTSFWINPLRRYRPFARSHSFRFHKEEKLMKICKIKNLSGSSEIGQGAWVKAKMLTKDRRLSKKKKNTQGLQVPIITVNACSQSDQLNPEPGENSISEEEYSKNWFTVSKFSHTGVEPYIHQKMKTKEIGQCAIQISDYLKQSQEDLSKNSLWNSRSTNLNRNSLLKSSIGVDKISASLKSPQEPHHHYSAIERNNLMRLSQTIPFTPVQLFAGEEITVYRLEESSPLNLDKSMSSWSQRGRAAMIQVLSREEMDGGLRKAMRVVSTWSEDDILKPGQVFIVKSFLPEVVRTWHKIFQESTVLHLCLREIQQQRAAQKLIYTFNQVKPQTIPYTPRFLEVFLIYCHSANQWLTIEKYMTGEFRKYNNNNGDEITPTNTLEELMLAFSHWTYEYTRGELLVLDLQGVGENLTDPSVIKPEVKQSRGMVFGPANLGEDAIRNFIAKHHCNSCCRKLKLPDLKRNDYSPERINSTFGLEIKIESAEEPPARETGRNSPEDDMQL
UniProt O60741, sequence (whole entry, looked up): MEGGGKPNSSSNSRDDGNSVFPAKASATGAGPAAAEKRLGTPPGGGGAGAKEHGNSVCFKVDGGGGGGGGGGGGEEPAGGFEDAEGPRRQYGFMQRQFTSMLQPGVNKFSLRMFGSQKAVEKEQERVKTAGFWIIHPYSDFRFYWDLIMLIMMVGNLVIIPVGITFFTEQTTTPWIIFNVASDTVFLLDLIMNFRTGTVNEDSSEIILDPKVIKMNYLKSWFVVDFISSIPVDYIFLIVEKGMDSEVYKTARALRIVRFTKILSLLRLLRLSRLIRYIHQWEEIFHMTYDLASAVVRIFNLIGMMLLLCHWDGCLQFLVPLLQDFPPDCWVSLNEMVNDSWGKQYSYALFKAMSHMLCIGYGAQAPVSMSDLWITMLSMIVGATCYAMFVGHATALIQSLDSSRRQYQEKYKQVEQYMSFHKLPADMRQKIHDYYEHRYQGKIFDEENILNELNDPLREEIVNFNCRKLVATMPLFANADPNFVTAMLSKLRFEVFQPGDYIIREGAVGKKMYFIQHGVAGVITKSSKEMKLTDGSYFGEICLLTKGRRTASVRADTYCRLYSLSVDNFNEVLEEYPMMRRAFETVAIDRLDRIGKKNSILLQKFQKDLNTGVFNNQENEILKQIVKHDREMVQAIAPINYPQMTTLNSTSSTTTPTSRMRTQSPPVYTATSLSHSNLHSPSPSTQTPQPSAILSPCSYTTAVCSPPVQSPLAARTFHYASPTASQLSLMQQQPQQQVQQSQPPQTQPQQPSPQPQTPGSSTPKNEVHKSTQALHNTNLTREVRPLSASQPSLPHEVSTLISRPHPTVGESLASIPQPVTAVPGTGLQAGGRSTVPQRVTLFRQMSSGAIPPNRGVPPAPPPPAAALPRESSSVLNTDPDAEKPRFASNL
UniProt P21127, sequence (whole entry, looked up): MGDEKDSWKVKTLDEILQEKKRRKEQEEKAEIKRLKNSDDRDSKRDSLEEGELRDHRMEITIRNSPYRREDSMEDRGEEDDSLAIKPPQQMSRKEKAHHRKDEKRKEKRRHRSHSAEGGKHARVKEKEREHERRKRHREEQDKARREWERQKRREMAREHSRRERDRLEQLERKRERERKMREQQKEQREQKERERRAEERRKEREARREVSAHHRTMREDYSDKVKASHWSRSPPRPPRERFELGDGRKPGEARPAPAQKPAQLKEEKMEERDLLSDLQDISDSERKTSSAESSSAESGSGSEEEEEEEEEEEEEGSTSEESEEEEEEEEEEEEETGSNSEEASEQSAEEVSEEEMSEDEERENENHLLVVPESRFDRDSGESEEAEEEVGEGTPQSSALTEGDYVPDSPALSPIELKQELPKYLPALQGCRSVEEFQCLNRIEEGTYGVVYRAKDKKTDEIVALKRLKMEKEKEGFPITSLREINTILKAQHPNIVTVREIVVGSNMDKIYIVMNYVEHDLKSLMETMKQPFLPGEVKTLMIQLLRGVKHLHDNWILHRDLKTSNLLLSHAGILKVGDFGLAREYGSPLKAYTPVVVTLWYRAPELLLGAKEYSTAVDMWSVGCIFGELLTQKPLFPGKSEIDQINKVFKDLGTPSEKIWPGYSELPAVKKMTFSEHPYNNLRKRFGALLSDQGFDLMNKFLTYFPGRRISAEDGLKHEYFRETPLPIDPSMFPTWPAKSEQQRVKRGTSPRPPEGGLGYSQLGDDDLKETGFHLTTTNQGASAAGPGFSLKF
UniProt P20309, sequence (whole entry, looked up): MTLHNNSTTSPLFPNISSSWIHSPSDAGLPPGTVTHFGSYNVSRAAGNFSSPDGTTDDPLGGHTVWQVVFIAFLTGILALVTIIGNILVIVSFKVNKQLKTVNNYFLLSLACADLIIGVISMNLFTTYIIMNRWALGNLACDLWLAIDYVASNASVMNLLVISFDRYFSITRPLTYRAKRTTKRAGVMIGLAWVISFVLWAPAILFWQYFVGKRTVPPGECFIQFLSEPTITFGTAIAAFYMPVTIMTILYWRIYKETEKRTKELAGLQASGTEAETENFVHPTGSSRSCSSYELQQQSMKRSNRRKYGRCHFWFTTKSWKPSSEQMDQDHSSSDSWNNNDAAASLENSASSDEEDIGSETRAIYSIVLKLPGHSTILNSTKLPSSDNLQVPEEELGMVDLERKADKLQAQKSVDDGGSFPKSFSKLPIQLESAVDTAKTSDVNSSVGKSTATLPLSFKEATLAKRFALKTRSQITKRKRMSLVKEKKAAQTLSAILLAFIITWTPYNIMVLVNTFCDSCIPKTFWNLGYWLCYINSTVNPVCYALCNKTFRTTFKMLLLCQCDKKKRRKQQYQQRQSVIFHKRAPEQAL

Compound = [2H]c1c([2H])c([C@]2([2H])CCCN2C(=O)C(C)(C)Oc2ccc3cn[nH]c3c2)c([2H])c([2H])c1C([2H])([2H])[2H]; target = CDK11B (Homo sapiens, UniProt P21127); test = binding, competition with immobilised ligand; conditions = 1 µM; quantity = remaining binding; result = 76%
Compound = COc1ncccc1-c1cnn2ccc(N3CCN(C(=O)OC(C)C)CC3)nc12; target = TRPM6 (Homo sapiens, UniProt Q9BX84); test = binding, competition with immobilised ligand; conditions = 1 µM; quantity = remaining binding; result = 100%
Compound = C#Cc1n[nH]c2c(-c3cn([C@@H](C)c4ccccn4)c(=O)[nH]c3=O)cc(F)cc12; target = PIK3C2A (Homo sapiens, UniProt O00443); test = enzyme activity, inhibitor; conditions = 0.1 µM; quantity = inhibition; result = 10.5%
Compound = c1cncc([C@@H]2CCCN2)c1; target = CHRM3 (Homo sapiens, UniProt P20309); test = ligand displacement; conditions = 50 µM; quantity = inhibition; result = -15.1%
Compound = CC(C)CC(=O)OC[C@H]1O[C@@](C#N)(c2ccc3c(N)ncnn23)[C@H](O)[C@@H]1O; target = Cathepsin G (CTSG, Homo sapiens, UniProt P08311); test = enzyme activity, inhibitor; conditions = 20 µM; quantity = inhibition; result = 3%
Compound = Cc1nnc(SCC2=C(C(=O)O)N3C(=O)[C@@H](NC(=O)Cn4cnnn4)[C@H]3SC2)s1; target = Potassium/sodium hyperpolarization-activated cyclic nucleotide-gated channel 1 (Homo sapiens, UniProt O60741); test = ion current, inhibitor; conditions = 10 µM; quantity = inhibition; result = -1.4%
Compound = Nc1ncc(-c2nc(N3CCOCC3)nc(N3CCOCC3)n2)c(C(F)F)n1; target = ACVRL1 (Homo sapiens, UniProt P37023); test = binding, competition with immobilised ligand; conditions = 10 µM; quantity = remaining binding; result = 73%
Compound = Cc1nn(C)cc1-c1nc2c(N3CCN(Cc4ccc(Cl)cc4)CC3)c(Cl)cnc2[nH]1; target = PIK3CA (Homo sapiens, UniProt P42336, I800L); test = binding, competition with immobilised ligand; conditions = 1 µM; quantity = remaining binding; result = 90%

A few entries again:
Compound = [2H]c1c([2H])c([C@]2([2H])CCCN2C(=O)C(C)(C)Oc2ccc3cn[nH]c3c2)c([2H])c([2H])c1C([2H])([2H])[2H]; target = CDK11B (Homo sapiens, UniProt P21127); test = binding, competition with immobilised ligand; conditions = 1 µM; quantity = remaining binding; result = 76%
